Results collected from several papers.
Compare with care: the assays were run in different laboratories.
CA9: Carbonic anhydrase 9 (CA9, Homo sapiens, UniProt Q16790)
UniProt P42336, sequence (whole entry, unmodified, looked up): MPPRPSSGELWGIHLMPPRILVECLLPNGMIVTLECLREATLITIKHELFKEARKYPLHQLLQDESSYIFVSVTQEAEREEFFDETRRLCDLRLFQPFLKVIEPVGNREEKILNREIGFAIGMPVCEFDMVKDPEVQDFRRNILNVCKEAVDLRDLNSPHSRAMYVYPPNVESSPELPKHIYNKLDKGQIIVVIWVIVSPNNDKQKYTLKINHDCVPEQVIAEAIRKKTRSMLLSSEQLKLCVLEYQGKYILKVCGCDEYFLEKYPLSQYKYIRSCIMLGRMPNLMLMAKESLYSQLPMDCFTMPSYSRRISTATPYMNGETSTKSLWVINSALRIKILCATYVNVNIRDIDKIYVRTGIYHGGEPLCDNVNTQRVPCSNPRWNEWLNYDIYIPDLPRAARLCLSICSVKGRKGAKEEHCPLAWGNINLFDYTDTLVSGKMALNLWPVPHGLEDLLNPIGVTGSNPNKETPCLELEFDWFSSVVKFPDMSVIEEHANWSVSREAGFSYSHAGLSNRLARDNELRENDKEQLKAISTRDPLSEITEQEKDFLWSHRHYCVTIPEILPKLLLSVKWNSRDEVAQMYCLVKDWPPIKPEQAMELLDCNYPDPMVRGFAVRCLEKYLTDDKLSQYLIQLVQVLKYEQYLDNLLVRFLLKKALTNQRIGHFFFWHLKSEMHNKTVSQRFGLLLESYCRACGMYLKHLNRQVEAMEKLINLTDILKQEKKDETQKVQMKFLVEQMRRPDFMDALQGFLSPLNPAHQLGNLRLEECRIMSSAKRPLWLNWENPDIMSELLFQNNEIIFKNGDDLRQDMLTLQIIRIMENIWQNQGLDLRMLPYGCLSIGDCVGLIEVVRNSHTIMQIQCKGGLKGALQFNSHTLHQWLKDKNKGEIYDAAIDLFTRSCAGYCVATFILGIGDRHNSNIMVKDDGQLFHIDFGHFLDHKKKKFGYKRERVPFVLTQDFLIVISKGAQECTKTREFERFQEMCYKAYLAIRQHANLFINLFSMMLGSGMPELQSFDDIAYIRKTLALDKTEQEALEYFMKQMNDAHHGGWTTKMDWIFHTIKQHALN
UniProt P57059, sequence (whole entry, looked up): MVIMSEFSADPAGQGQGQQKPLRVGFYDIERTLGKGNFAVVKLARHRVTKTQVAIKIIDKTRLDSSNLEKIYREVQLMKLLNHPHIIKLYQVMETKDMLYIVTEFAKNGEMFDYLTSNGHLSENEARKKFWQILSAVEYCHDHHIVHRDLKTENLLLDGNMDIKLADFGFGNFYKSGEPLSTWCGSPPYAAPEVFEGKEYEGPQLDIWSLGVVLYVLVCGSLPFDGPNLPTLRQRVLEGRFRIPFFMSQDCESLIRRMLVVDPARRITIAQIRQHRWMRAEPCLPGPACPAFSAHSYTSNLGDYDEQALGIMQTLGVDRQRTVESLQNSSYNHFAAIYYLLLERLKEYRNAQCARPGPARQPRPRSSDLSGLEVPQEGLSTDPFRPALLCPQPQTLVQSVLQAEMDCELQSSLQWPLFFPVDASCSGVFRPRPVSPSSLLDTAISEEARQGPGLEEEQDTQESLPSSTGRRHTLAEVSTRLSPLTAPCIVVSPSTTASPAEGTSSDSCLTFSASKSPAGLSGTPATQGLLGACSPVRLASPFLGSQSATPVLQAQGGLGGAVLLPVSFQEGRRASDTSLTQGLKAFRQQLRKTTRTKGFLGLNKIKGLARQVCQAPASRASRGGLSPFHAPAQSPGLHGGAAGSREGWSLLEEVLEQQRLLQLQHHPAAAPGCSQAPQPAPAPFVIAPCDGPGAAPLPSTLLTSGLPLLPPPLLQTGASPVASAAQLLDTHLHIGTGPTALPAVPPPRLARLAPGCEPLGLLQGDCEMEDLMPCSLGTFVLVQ
UniProt Q8NEV4, sequence (whole entry, looked up): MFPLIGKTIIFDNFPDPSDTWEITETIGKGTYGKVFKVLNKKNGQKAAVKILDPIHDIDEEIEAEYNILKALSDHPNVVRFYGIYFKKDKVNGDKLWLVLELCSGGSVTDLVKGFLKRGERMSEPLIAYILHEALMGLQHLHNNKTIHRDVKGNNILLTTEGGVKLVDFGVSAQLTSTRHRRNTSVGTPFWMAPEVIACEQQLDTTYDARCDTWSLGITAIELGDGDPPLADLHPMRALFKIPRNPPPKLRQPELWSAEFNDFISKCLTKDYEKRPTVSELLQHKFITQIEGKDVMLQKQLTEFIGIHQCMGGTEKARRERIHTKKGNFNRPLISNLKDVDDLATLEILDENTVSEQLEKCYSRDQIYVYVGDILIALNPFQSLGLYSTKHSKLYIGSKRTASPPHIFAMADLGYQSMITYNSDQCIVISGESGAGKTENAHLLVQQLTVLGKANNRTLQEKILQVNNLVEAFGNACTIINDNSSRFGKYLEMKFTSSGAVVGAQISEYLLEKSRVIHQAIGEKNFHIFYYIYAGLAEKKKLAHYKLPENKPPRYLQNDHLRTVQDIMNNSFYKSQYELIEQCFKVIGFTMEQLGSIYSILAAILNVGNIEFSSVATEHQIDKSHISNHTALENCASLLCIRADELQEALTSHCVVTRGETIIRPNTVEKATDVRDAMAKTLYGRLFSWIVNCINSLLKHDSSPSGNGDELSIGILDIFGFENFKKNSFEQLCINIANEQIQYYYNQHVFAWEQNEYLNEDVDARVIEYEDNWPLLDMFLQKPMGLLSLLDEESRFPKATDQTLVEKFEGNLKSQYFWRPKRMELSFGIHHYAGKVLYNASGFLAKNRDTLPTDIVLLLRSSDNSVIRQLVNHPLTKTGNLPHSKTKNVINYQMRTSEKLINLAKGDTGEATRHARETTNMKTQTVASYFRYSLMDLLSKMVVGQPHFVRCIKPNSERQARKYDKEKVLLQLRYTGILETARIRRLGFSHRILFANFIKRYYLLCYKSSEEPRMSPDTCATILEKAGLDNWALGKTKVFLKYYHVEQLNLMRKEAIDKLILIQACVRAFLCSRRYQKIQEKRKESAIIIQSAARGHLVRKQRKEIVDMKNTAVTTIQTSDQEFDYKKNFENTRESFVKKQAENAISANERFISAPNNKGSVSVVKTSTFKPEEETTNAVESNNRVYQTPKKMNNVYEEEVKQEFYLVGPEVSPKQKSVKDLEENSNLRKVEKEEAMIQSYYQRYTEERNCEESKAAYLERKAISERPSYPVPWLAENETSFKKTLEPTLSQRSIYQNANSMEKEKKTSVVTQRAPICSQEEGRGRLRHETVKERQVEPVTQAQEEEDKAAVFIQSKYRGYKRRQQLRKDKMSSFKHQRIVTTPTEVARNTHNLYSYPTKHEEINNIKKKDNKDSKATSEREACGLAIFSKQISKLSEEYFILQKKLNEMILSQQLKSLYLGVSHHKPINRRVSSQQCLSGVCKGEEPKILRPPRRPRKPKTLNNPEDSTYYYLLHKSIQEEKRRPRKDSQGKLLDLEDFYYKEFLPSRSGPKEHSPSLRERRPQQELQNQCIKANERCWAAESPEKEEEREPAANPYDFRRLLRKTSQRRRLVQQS
UniProt P23443, sequence (whole entry, looked up): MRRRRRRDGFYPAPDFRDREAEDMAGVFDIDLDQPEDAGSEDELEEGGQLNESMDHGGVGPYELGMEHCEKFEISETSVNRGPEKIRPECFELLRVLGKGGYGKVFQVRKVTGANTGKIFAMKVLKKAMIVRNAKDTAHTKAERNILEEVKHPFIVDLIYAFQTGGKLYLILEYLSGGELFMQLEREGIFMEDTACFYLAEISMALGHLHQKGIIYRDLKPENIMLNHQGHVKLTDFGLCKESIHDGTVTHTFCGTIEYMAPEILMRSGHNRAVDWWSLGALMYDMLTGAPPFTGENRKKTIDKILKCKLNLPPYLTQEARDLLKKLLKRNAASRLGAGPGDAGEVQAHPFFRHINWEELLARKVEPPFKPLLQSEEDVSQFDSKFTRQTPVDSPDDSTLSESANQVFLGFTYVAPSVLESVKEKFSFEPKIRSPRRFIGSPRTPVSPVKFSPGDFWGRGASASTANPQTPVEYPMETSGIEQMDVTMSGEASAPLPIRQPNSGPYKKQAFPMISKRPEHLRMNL

With C=CC(=O)N1CCC(COCC(=O)N2CCN(c3nc(-c4cnc(N)nc4C(F)F)nc(N4CCOC[C@@H]4C)n3)CC2)CC1 the remaining binding was 0% (Phosphatidylinositol 4,5-bisphosphate 3-kinase catalytic subunit alpha isoform (PIK3CA, Homo sapiens, UniProt P42336, E545A); binding, competition with immobilised ligand; 1 µM).
[2H]c1c([2H])c([C@]2([2H])CCCN2C(=O)C(C)(C)Oc2ccc3cn[nH]c3c2)c([2H])c([2H])c1C([2H])([2H])[2H] has a remaining binding of 94% (Ribosomal protein S6 kinase beta-1 (RPS6KB1, Homo sapiens, UniProt P23443); binding, competition with immobilised ligand; 1 µM).
The remaining binding of Cc1cc([C@@H](C)Nc2ccccc2C(=O)O)c2nc(N3CCC(F)(F)CC3)c(C#N)c(=O)n2c1 is reported as 92% (Phosphatidylinositol 4,5-bisphosphate 3-kinase catalytic subunit alpha isoform (PIK3CA, Homo sapiens, UniProt P42336); binding, competition with immobilised ligand; 10 µM).
C1=C/COCc2cc(ccc2OCCN2CCCC2)Nc2nccc(n2)-c2cccc(c2)COC/1 has a remaining binding of 100% (Myosin-IIIa (MYO3A, Homo sapiens, UniProt Q8NEV4); binding; 0.1 µM).
The IC50 of Cc1nn(-c2ccc(S(N)(=O)=O)cc2)c(C)c1CCC(=O)Nc1ccccc1C(=O)NCc1cn(C)nn1 is reported as 38.9 nM (CA9; enzyme activity, inhibitor).
CCCCC(=O)Nc1ccc(-c2ccc3ncn(CCC)c(=O)c3c2)cn1 has a remaining binding of 100% (Phosphatidylinositol 4,5-bisphosphate 3-kinase catalytic subunit alpha isoform (PIK3CA, Homo sapiens, UniProt P42336, Q546K); binding, competition with immobilised ligand; 0.5 µM).
The remaining activity of CNc1ncc2c(/C=C/C(=O)N3CCC(OC)CC3)nn(Cc3cccc(C(F)(F)F)c3)c2n1 is reported as 93% (Serine/threonine-protein kinase SIK1 (SIK1, Homo sapiens, UniProt P57059); enzyme activity, inhibitor, radiometric; 1 µM).
For CC(NCC1(c2cccc(-c3cn(C)nn3)c2)CCOCC1)C(=O)Nc1ccc(S(N)(=O)=O)cc1 (centres unmarked), the IC50 was 117 nM (CA9; enzyme activity, inhibitor).

For quick reference, copied from above:
C1=C/COCc2cc(ccc2OCCN2CCCC2)Nc2nccc(n2)-c2cccc(c2)COC/1 has a remaining binding of 100% (Myosin-IIIa (MYO3A, Homo sapiens, UniProt Q8NEV4); binding; 0.1 µM).
